Published values gathered from unrelated publications.
Numbered parts are unrelated; each lists some results of a single study. Positions count from the first letter of the parent shown.

Block 1
Target: CCNB1, cyclin fold, Cln2 fusion (human)
Technique: yeast growth competition, sequencing
Matrix: yeast
Setting: weak parent motif
Reference: not given
Direction: higher = stronger binding
Parent: BORA docking peptide (human); SSLRRKLFLDGNG
`R5A` — result for “normalised enrichment score”: 0.153.
For `F8A`, “normalised enrichment score” read 0.73.
Under “normalised enrichment score”, `L7A` is recorded as 0.123.
`R5K`: “normalised enrichment score” 0.466.
`G11A` — result for “normalised enrichment score”: 0.467.
`G13A` — result for “normalised enrichment score”: 0.385.
`L9F` — result for “normalised enrichment score”: 0.625.
`D10A` — result for “normalised enrichment score”: 0.327.

Block 2
Target: Fragile X messenger ribonucleoprotein 1, C-terminal low-complexity region (Fmr1, Mus musculus, UniProt P35922)
Technique: RNA Bind-n-Seq
Molecule type: RNA
Matrix: in vitro
Concentration: 200 nM
Setting: whole 134-nt RNA, ends assumed
Added: 150 mM LiCl
Reference: input library
Direction: higher = stronger binding
Library: 7-deaza-guanosine replaces G
All sequences stand within: GGGAGUUCUACAGUCCGACGAUC … UGGAAUUCUCGGGUGUCAAGG
`UUUGUGAGACAUGUGAAAGGAGGACAUGGUCACAGUCAUGGACAUGGACACGCUCACAGUCAUACACGUGGAAGUCAUGGACAUGGAAGA` gave a log2 enrichment of -4.19.
`CUGUGCUACACAUCGUAUGUACCGAAUCAAAUUUUUUUAAAUUUUUUUAAACCCCCCCAAAAAAGUAUUAUGUUACGCCGUUCGGAUCUG` gave a log2 enrichment of 0.992.
For `CACAGACAACACGCACCCACACAGACACAGAGGGAAGGGGUUGGGAUGGGGACAGGGUGCACAGCAGGACGGGGUAGGACCCCAGCCCCU`, the log2 enrichment was -0.0436.
With `UCCUGCCAACCUCUCUUAAUGCUCUGAGAGCCUCUGGUGUUGACAUAGAAGAGGAAACGGAGAAGAACCUGGAAAAGGUACAGACUAUCA` the log2 enrichment was -2.62.
With `CUUCUUGCAUGCUCGGCUCCGGACAGCUACGCUUCGGCAUGACGCAGACGGGCAGGCCACCCUGUUGAACCUCCUGCUGCGGAAUUACCU` the log2 enrichment was 0.00876.

Block 3
Target: Histone acetyltransferase KAT6A, winged helix 1, GST fusion (KAT6A, Homo sapiens, UniProt Q92794, residues 1-85)
Technique: protein binding microarray
Molecule type: double-stranded DNA, one strand shown
Matrix: in vitro
Concentration: not given
Setting: 8-mer, flanks averaged, mean of 2 arrays, mostly near background
Reference: not given
Direction: higher = stronger binding
Construct (chain): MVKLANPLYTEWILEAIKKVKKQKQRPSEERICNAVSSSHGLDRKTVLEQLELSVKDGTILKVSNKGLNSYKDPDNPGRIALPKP
With `GCCTTAAC` the E-score was 0.0708.
`GGCATTAC` has an E-score of 0.159.
`AATGAATT` gave an E-score of -0.221.
With `CGTGGCAC` the E-score was -0.021.
`ACCGCCTA` has an E-score of 0.223.
The E-score of `AGGCAGTC` is reported as 0.0282.
`ACGGTTCA` gave an E-score of 0.0712.
`AGTCAAGG` has an E-score of -0.197.
For `GGACTAGA`, the E-score was -0.147.
`GAGAATGA` has an E-score of -0.176.
`CTTGAAAC` gave an E-score of -0.0346.
`AGAGTCAT` gave an E-score of -0.269.
`GGGAGGGA` gave an E-score of -0.0232.
`CGCAAGAC` has an E-score of 0.0415.
With `ACAACGCA` the E-score was -0.00958.
With `ATACACGA` the E-score was -0.0387.
With `AAGGGAGG` the E-score was -0.148.
With `CCCCGCAG` the E-score was 0.29.
`GTGGACAC` has an E-score of -0.0216.
`ACCCATAT` has an E-score of -0.101.
The E-score of `ACGGAGAA` is reported as 0.117.
`GTGCTTTA` gave an E-score of -0.196.
For `ACCCCGGG`, the E-score was 0.364.
For `AGTGTACA`, the E-score was -0.0569.
With `CCTAACCC` the E-score was 0.14.

Block 4
Target: PABPC1L2, full length, GST fusion (mouse, UniProt A0ABA7IW68)
Technique: RNAcompete
Molecule type: RNA
Matrix: in vitro
Concentration: 20 nM
Setting: 7-mer, probes averaged, single round
Reference: mean of 7-mers
Direction: higher = stronger binding
Target sequence (chain): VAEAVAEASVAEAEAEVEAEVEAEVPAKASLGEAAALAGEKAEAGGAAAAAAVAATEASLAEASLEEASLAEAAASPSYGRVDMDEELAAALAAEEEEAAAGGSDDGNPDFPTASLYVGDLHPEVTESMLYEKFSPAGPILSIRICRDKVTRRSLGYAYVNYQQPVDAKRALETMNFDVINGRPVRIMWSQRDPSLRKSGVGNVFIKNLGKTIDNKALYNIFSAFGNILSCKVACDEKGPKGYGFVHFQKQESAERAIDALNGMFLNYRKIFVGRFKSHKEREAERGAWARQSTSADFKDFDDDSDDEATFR
For `CCAACCG`, the 7-mer Z-score was -0.251.
`ACACAGC` gave a 7-mer Z-score of -0.0645.
With `GACUAGA` the 7-mer Z-score was 0.146.
`UCCUCAU` has a 7-mer Z-score of -0.365.
With `AGACGUG` the 7-mer Z-score was -0.204.
The 7-mer Z-score of `UGACCCA` is reported as -0.121.
The 7-mer Z-score of `AUUGGGG` is reported as 0.365.
With `GCUUGCG` the 7-mer Z-score was -0.175.
For `AAAGACG`, the 7-mer Z-score was 2.26.
The 7-mer Z-score of `UUCAGUC` is reported as -0.344.
The 7-mer Z-score of `AAAUGAU` is reported as 1.17.
`UUCUUAC` has a 7-mer Z-score of -0.269.
With `CUCCUGU` the 7-mer Z-score was -0.403.
`CACGAUU` has a 7-mer Z-score of -0.0138.
`ACGUCGA` gave a 7-mer Z-score of -0.17.
The 7-mer Z-score of `UUGACGA` is reported as -0.0863.
With `CCUAUAA` the 7-mer Z-score was 0.122.
